# Measurements from different studies.
# Lines come from different studies, so protocols differ. Values joined by “and” are separate records of one study, mostly repeats; a detail may differ. Numbers after ± are the reported error.
SMILES,target or system,test,test system,setting,how to read,measurement,value
O=C1NC2(CC2)COc2ncc(F)cc2[C@H]2COCCN2c2ccn3ncc1c3n2,,,"Sprague-Dawley rat, female, serum","oral, 10 mg/kg/day, 4 weeks daily, end of treatment",,creatine kinase activity,462 ± 123 U/L
CC(C)CC(C(=O)N1CC2(CC1C#N)C(=O)Nc1ccccc12)N(C)C(=O)c1cc2c(F)cc(F)c(F)c2[nH]1 (stereo not shown),Betacoronavirus 1,viral replication,"HCT-8, OC43",0.25 µM,,inhibition,98.8%
Cc1cc(Oc2nc(N3CC[C@@H](c4ccncc4)C3)ncc2F)[nH]n1,Mycobacterium tuberculosis,OD,H37Rv PurF CRISPRi knockdown,"0.007813 µM, with: anhydrotetracycline low",,normalised growth,44% and 40% and 39%
C[C@H](NCc1ccc(-c2ccc(C(F)(F)F)cc2)cc1)C(N)=O,,"passive avoidance, acquisition",APP/PS1 mice,"oral, 1 mg/kg, 336 h, 2 weeks dosing",,step-through latency,29.9 ± 4.77 s
Cc1ccc(NS(=O)(=O)c2c(C(=O)N3CCCCCC3)c(C)n(C)c2C)c(Cl)c1,Fowlpox virus,viral infection,CEF,33.33 µM,relative to: untreated,infection,98.2% and 106% and 89.2%
COc1ccccc1-c1n[nH]c2nc(NC3CCN(C(=O)Cc4ccc(F)cc4F)CC3)ncc12,,"bead binding, competition bead pull-down, item: LINJ.02.0430",Leishmania donovani extract,10 µM,relative to: vehicle,relative abundance,0.91
CC(C)C[C@@H]1NC(=O)[C@@H](Cc2c[nH]c3ccccc23)NC(=O)[C@H](CCCNC(=N)N)NC(=O)[C@@H](CCC(=O)O)NC(=O)[C@H](CCC(N)=O)NC(=O)[C@@H](CCC(=O)O)NC(=O)[C@H](CCCNC(=N)N)NC(=O)[C@@H](Cc2c[nH]c3ccccc23)NC1=O,,"Luminex, item: MIP-2 CCL2","LDLr-/- mice, Western diet, liver","dose not given, 4 weeks",,cytokine level,460 ± 110 pg/g tissue
Cc1cc(C(=O)Nc2nc3cccc(C)c3n2[C@H]2CCCCN(C(=O)/C=C/CN(C)C)C2)ccn1,Trypanosoma brucei brucei,,2T1 CLK1 overexpressing,"0.0195 µM, DMSO pretreated",relative to: maximum,survival,45.9% and 59.6% and 58.7% and 54.7%
CC1CCC2C(C)C(CCCOC(=O)C(Cc3ccc(N(CCCl)CCCl)cc3)NC(=O)OC(C)(C)C)OC3OC4(C)CCC1C32OO4 (stereo not shown),IOSE-144,"cell growth or viability, CCK-8",,,,IC50,15.2 µM
COc1ccccc1-c1n[nH]c2nc(N[C@H]3CC[C@H](NS(=O)(=O)CC(C)C)CC3)ncc12,,"bead binding, competition bead pull-down, item: LINJ.29.0860",Leishmania donovani extract,10 µM,relative to: vehicle,relative abundance,0.96
CCN(Cc1ccccc1)C(=O)CCc1nc(CN2CCN(C(=O)Cc3ccc(OC)c(OC)c3)CC2)no1,,current clamp,"DRG neurons, naive rat",3 µM,,rheobase,540 ± 137 pA
CCOC(=O)C1(Cc2ccc(OC)cc2)Oc2cc(F)ccc2N(Cc2ccc(OC)cc2)C1=O (stereo not shown),Arabidopsis thaliana,"root length, petri dish germination","Col-0, 1/2 MS medium","200 µg/mL, 7 days, 22 °C, dark",,inhibition,78.9%
CC(C)(C)C(=O)OCOP(=O)(OCOC(=O)C(C)(C)C)C1CCCN(O)C1=O (stereo not shown),MOLT-4,,,,,GI50,431 nM
